# Measurements of several laboratories.
# Every numbered part comes from another study and shows a few of its results, in no order. Positions count from the first letter of the parent shown.
# Sequence of UniProt Q9H4B4 (whole entry, looked up): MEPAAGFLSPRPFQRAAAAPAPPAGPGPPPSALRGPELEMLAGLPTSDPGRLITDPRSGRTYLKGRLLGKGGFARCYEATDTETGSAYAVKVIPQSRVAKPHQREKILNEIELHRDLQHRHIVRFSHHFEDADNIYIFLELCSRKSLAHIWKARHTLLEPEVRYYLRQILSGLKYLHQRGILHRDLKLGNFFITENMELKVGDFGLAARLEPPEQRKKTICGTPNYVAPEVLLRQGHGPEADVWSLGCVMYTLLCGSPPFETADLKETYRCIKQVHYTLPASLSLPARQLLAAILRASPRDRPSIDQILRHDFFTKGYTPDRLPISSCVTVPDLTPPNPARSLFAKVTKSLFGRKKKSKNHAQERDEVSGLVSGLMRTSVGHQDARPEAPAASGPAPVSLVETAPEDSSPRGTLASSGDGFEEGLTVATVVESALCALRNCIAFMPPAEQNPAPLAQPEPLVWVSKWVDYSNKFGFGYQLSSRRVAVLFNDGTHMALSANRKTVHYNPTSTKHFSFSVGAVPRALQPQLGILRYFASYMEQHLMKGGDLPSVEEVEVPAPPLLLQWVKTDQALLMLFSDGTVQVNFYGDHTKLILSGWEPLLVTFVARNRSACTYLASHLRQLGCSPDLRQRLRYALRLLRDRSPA
# Sequence of UniProt Q9HAZ1 (whole entry, looked up): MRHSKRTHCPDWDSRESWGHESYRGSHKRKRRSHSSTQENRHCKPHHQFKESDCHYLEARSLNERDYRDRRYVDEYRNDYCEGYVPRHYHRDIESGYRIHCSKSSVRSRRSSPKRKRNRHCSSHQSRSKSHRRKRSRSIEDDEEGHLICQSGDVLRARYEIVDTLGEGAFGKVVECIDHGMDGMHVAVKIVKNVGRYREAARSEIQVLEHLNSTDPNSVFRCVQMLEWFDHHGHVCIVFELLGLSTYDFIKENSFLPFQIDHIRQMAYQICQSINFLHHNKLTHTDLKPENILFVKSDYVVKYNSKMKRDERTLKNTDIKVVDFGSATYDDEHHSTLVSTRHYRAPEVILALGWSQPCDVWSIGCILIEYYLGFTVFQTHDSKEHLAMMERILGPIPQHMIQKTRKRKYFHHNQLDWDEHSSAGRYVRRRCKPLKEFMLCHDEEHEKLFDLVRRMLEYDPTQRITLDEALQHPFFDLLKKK
# Sequence of UniProt Q9HCP0 (whole entry, looked up): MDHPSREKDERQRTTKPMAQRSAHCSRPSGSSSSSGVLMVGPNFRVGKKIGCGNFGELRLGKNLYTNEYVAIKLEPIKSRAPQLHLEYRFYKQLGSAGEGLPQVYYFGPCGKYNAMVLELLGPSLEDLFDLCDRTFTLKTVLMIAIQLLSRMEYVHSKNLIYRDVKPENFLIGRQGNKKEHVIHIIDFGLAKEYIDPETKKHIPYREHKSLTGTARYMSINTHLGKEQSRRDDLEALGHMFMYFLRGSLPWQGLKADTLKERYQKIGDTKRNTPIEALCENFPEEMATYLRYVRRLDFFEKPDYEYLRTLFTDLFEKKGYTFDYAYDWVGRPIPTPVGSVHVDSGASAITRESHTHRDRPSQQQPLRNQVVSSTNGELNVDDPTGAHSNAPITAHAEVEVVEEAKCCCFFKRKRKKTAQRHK
# Sequence of UniProt P42336 (whole entry, unmodified, looked up): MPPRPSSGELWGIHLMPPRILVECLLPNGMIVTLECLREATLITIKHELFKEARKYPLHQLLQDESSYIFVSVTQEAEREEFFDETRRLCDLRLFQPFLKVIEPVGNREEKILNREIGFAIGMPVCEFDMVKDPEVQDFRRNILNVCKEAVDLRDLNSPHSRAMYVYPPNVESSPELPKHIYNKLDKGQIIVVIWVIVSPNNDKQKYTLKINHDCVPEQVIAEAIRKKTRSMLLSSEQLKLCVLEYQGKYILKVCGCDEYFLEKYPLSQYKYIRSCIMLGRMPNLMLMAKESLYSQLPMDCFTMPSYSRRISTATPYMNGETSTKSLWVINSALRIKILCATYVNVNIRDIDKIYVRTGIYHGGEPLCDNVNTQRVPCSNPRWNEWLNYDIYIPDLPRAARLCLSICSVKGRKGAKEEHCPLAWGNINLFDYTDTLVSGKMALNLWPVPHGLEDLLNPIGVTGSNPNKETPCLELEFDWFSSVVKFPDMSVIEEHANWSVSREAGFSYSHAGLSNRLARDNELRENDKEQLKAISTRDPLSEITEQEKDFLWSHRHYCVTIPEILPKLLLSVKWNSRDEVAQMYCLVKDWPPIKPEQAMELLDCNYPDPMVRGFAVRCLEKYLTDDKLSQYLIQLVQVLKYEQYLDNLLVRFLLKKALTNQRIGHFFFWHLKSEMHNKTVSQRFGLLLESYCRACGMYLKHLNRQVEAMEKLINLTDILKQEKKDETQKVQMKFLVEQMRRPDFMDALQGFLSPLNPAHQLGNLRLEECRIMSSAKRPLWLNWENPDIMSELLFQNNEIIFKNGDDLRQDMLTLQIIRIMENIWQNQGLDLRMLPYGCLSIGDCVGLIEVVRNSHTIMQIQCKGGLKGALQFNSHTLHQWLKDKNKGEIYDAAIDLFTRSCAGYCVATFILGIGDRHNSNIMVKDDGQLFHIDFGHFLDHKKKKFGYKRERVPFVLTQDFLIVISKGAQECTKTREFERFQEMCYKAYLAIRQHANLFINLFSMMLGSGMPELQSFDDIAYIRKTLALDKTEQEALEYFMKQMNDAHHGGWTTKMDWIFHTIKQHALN
# Sequence of UniProt P35968 (whole entry, looked up): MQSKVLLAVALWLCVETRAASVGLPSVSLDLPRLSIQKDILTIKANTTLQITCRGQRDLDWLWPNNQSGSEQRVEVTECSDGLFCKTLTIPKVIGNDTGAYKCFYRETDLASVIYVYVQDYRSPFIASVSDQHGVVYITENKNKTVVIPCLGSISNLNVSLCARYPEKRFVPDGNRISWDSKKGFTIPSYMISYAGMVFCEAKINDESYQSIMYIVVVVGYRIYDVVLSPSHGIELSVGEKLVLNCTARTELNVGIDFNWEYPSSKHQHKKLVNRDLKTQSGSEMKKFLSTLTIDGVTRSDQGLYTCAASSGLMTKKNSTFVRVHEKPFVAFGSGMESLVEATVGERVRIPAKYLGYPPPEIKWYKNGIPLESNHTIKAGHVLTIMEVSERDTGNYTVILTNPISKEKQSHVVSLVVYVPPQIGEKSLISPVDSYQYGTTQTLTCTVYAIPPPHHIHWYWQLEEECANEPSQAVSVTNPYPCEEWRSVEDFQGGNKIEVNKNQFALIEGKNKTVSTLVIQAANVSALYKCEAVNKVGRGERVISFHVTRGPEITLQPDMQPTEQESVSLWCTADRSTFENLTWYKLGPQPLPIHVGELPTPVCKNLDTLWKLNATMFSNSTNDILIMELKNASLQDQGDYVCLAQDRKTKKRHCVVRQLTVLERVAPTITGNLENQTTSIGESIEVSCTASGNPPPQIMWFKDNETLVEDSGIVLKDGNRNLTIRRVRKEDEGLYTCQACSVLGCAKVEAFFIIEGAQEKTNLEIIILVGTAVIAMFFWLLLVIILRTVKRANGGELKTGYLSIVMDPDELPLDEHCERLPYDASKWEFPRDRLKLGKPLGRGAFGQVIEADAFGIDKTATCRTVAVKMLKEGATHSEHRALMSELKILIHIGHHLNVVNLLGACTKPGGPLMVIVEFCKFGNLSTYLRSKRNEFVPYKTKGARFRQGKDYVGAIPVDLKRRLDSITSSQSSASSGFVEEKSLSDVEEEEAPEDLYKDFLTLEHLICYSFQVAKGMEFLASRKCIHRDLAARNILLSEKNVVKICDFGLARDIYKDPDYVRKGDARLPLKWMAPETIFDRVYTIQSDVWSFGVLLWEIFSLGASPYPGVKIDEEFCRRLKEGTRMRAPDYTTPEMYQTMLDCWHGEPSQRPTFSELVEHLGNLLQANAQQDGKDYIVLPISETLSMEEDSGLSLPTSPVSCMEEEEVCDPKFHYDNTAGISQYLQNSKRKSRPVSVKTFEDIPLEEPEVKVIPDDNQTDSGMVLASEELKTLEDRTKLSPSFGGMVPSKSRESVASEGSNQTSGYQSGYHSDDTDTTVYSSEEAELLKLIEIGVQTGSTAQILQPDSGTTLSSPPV
# Sequence of UniProt P29317 (whole entry, looked up): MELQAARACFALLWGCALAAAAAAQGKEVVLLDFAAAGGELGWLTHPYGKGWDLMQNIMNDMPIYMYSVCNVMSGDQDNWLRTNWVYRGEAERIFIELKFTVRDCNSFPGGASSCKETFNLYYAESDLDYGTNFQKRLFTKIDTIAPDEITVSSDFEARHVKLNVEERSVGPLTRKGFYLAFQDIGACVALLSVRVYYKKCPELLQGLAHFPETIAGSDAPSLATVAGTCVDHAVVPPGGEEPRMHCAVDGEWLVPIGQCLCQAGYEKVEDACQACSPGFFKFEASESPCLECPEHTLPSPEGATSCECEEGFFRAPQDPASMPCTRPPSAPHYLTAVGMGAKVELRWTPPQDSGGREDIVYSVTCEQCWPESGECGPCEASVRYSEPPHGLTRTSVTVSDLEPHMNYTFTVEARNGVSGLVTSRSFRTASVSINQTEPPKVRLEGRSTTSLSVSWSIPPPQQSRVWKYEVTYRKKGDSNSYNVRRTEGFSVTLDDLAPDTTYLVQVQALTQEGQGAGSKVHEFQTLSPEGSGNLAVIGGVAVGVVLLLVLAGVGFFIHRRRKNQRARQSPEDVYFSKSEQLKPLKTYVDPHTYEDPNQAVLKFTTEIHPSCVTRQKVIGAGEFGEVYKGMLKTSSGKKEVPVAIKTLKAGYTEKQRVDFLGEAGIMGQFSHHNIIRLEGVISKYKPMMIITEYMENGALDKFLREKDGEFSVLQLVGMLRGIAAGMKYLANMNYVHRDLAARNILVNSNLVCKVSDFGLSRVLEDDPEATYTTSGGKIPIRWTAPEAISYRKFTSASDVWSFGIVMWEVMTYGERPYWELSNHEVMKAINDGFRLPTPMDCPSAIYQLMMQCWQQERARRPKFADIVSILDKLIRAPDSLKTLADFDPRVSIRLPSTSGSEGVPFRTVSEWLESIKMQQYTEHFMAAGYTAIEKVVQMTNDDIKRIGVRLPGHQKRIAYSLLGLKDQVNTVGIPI

# Series 1
# Compound: Nc1[nH]nc2nnc(-c3c(-c4ccccc4)nn4ccccc34)cc12
# Effect on: enzyme activity
# Mode: inhibitor
# Tested at: 0.5 µM
# Relative to: control
target,remaining activity [%]
"CDC42BPB (Homo sapiens, UniProt Q9Y5S2)",93.4
"NEK3 (Homo sapiens, UniProt P51956)",82.7
"RPS6KA4 (Homo sapiens, UniProt O75676)",94.7
"DCLK2 (Homo sapiens, UniProt Q8N568)",100
"KDR (Homo sapiens, UniProt P35968)",101
"GRK4 (Homo sapiens, UniProt P32298)",103
"CLK4 (Homo sapiens, UniProt Q9HAZ1)",101
"PLK3 (Homo sapiens, UniProt Q9H4B4)",100
"PRKG2 (Homo sapiens, UniProt Q13237)",104
"Cyclin-dependent kinase 1, with cyclin A (CDK1, Homo sapiens, UniProt P06493)",101
"PAK3 (Homo sapiens, UniProt O75914)",100
"PNCK (Homo sapiens, UniProt Q6P2M8)",99.6
"MARK2 (Homo sapiens, UniProt Q7KZI7)",104

# Series 2
# SMILES: c1ccc(N2CCN(Cc3nc4ccccc4[nH]3)CC2)nc1
# Technique: competition with immobilised ligand
# Tested at: 1 µM
target,effect on,remaining binding
"BRAF (Homo sapiens, UniProt P15056)",cell-free assay,100%
"CSNK1G1 (Homo sapiens, UniProt Q9HCP0)",cell-free assay,100%
"PRPF4B (Homo sapiens, UniProt Q13523)",cell-free assay,57%
"FLT4 (Homo sapiens, UniProt P35916)",cell-free assay,100%
"MYLK3 (Homo sapiens, UniProt Q32MK0)",binding,100%
"Mast/stem cell growth factor receptor Kit, autoinhibited (KIT, Homo sapiens, UniProt P10721)",binding,100%
"PIK3CA (Homo sapiens, UniProt P42336, H1047L)",cell-free assay,100%
"EPHA2 (Homo sapiens, UniProt P29317)",cell-free assay,100%
"SIK3 (Homo sapiens, UniProt Q9Y2K2)",binding,91%
"STK38L (Homo sapiens, UniProt Q9Y2H1)",binding,72%
"Receptor-type tyrosine-protein kinase FLT3, autoinhibited (FLT3, Homo sapiens, UniProt P36888)",binding,100%
"TEC (Homo sapiens, UniProt P42680)",binding,100%
"RIPK4 (Homo sapiens, UniProt P57078)",binding,100%

# Series 3
# Target: CREB3L4, bZIP domain (human)
# Technique: DHFR protein complementation
# Medium: yeast
# Notes: single substitutions, most at no-binding floor
# Relative to: wild-type JUN-FOS pair
# Reading: higher = stronger binding
# Starting sequence: JUN, bZIP domain (human); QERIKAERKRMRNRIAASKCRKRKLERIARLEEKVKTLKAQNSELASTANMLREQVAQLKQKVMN; partner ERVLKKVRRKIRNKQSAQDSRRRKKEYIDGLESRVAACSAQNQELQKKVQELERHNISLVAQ
Change,binding fitness [natural log]
S43R,-1.41
L38P,-1.53
E44M,-1.46
V56C,-1.41
R53M,-1.37
K34L,-1.55
A49Y,-1.45
K39G,-1.48

# Series 4
# Target: PABPC1L2, full length, GST fusion (mouse, UniProt A0ABA7IW68)
# Technique: RNAcompete
# Form: RNA
# Medium: in vitro
# Tested at: 20 nM
# Notes: 7-mer, probes averaged, single round
# Relative to: mean of 7-mers
# Reading: higher = stronger binding
# Residues (chain): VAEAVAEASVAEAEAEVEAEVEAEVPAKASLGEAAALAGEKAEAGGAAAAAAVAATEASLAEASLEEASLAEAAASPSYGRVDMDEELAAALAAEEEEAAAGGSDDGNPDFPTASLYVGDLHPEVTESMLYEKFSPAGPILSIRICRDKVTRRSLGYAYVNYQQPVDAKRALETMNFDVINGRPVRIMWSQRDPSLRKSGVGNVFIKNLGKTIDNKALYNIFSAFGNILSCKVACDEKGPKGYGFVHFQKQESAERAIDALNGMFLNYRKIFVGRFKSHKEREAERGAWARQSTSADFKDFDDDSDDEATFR
Sequence,7-mer Z-score
GGGAUAA,0.539
UCCAGCA,-0.0464
CGGGCAU,0.0515
CCGCUGA,-0.237
CCAGGUA,-0.157
AUUGGCU,-0.0953
GGUCCGG,-0.0826
AUAGAUC,0.00979

# A few entries again (series 1):
target,remaining activity [%]
"NEK3 (Homo sapiens, UniProt P51956)",82.7
"CLK4 (Homo sapiens, UniProt Q9HAZ1)",101
